Measured values of several laboratories.
± gives the spread as reported.

Compound | test | system | setting | scale | measurement | result
CCCC[C@H](NC(=O)CNC(=O)CNC(=O)CNC(=O)c1ccc(NN)nc1)C(=O)N[C@H]1CC(=O)NCCCC[C@@H](C(N)=O)NC(=O)[C@H](Cc2c[nH]c3ccccc23)NC(=O)[C@H](CCCNC(=N)N)NC(=O)[C@@H](Cc2ccccc2)NC(=O)[C@H](Cc2c[nH]cn2)NC1=O [technetium-99m labelled] | – | C57 mouse, B16/F1 melanoma, pancreas | intravenous, 2 h | – | uptake | 0.02 ± 0.01 %ID/g
C=Cc1c(C)c2cc3nc(c4c5[nH]c(cc6nc(cc1[nH]2)C(C)=C6CC)c(C)c5C(=O)C4)[C@@H](CCC(=O)NCC(=O)N1CCC[C@H]1C(=O)N[C@@H](CC(C)C)C(=O)NCC(=O)N[C@@H](Cc1ccccc1)C(=O)N[C@@H](CCCNC(=N)N)C(=O)N[C@H](C(=O)NCC(=O)N[C@@H](CCCCN)C(N)=O)C(C)C)[C@@H]3C | in vivo fluorescence imaging | C57BL/6J mouse, DMM osteoarthritis model, knee joint | intra-articular, 1 nmol, 6 h | – | decrease of fluorescence signal | 75 ± 6%
N=C(N)NCCC[C@@H]1NC(=O)[C@H](CCCCNC(=O)CCOCCOCCOCCOCCNC(=O)CC[C@H](NC(=O)CCOCCOCCOCCOCCNC(=O)c2ccc(NN)nc2)C(=O)NCCOCCOCCOCCOCCC(=O)NCCCC[C@@H]2NC(=O)[C@@H](Cc3ccccc3)NC(=O)[C@H](CC(=O)O)NC(=O)CNC(=O)[C@H](CCCNC(=N)N)NC2=O)NC(=O)[C@@H](Cc2ccccc2)NC(=O)[C@H](CC(=O)O)NC(=O)CNC1=O [technetium-99m labelled] | – | female athymic nude mice, U-87 MG glioma xenograft, tumour and blood | intravenous, 2.5 µCi, 60 min | reference: tumour over blood | tissue-to-tissue ratio | 36 ± 11.5
N=C(N)NCCC[C@@H]1NC(=O)[C@H](CCCCNC(=O)CNC(=O)CNC(=O)CNC(=O)CC[C@H](NC(=O)CCOCCOCCOCCOCCNC(=O)CC[C@H](NC(=O)CN2CCN(CC(=O)O)CCN(CC(=O)O)CCN(CC(=O)O)CC2)C(=O)NCCOCCOCCOCCOCCC(=O)N[C@@H](CCC(=O)NCC(=O)NCC(=O)NCC(=O)NCCCC[C@@H]2NC(=O)[C@@H](Cc3ccccc3)NC(=O)[C@H](CC(=O)O)NC(=O)CNC(=O)[C@H](CCCNC(=N)N)NC2=O)C(=O)NCC(=O)NCC(=O)NCC(=O)NCCCC[C@@H]2NC(=O)[C@@H](Cc3ccccc3)NC(=O)[C@H](CC(=O)O)NC(=O)CNC(=O)[C@H](CCCNC(=N)N)NC2=O)C(=O)NCC(=O)NCC(=O)NCC(=O)NCCCC[C@@H]2NC(=O)[C@@H](Cc3ccccc3)NC(=O)[C@H](CC(=O)O)NC(=O)CNC(=O)[C@H](CCCNC(=N)N)NC2=O)NC(=O)[C@@H](Cc2ccccc2)NC(=O)[C@H](CC(=O)O)NC(=O)CNC1=O [indium-111 labelled] | planar imaging | athymic nude mouse, U-87 MG xenograft, tumour | intravenous | – | retention half-life | > 30 h
CCCCCCCCCCCCCCCCCC(=O)OC[C@H](NC(=O)[C@H](Cc1c[nH]c2ccccc12)NC(=O)[C@H](Cc1c[nH]cn1)NC(=O)[C@@H]1CCC(=O)N1)C(=O)N[C@@H](Cc1ccc(O)cc1)C(=O)N[C@H](CC(C)C)C(=O)N[C@@H](CC(C)C)C(=O)N[C@@H](CCCNC(=N)N)C(=O)N1CCC[C@H]1C(=O)NCC | HPLC | human plasma | 1 mg/mL, 37 °C, 50% degraded | – | time to degradation | 4540 min
N=C(N)NCCC[C@@H]1NC(=O)[C@H](CCCCNC(=O)CCOCCOCCOCCOCCNC(=O)CN2CCN(CC(=O)O)CCN(CC(=O)O)CCN(CC(=O)O)CC2)NC(=O)[C@@H](Cc2ccccc2)NC(=O)[C@H](CC(=O)O)NC(=O)CNC1=O [indium-111 labelled] | – | female athymic nude mice, intestine | intravenous, 3 µCi, 24 h, U-87 MG glioma xenograft | – | tissue uptake | 0.91 ± 0.33 %ID/g
CCCC[C@H](NC(=O)CNC(=O)CNC(=O)c1ccc(NN)nc1)C(=O)N[C@H]1CC(=O)NCCCC[C@@H](C(N)=O)NC(=O)[C@H](Cc2c[nH]c3ccccc23)NC(=O)[C@H](CCCNC(=N)N)NC(=O)[C@@H](Cc2ccccc2)NC(=O)[C@H](Cc2c[nH]cn2)NC1=O [technetium-99m labelled] | – | C57 mouse, B16/F1 melanoma, muscle | 2 h, together with: L-lysine 12 mg | – | uptake | 0.06 ± 0.05 %ID/g
CC(C)C[C@@H]1NC(=O)[C@H](C(C)C)NC(=O)[C@H](CO)NC(=O)CNC(=O)CNC(=O)[C@H](CCCNC(=N)N)NC(=O)[C@@H]2CCCN2C(=O)[C@@H](NC(=O)CC[C@H](NC(=O)c2ccc(N(C)Cc3cnc4nc(N)nc(N)c4n3)cc2)C(=O)O)C(C)(C)SSC[C@@H](C(=O)O)NC(=O)CNC(=O)[C@H]([C@@H](C)O)NC(=O)[C@H](C(C)C)NC1=O | HPLC | HCl buffer | pH 1.0, 70 °C | – | degradation rate constant | 0.525 h⁻¹
N=C(N)NCCC[C@@H]1NC(=O)[C@H](CCCCNC(=O)CC[C@H](NC(=O)CCOCCOCCOCCOCCNC(=O)CC[C@H](NC(=O)CN2CCN(CC(=O)O)CCN(CC(=O)O)CCN(CC(=O)O)CC2)C(=O)NCCOCCOCCOCCOCCC(=O)N[C@@H](CCC(=O)NCCCC[C@@H]2NC(=O)[C@@H](Cc3ccccc3)NC(=O)[C@H](CC(=O)O)NC(=O)CNC(=O)[C@H](CCCNC(=N)N)NC2=O)C(=O)NCCCC[C@@H]2NC(=O)[C@@H](Cc3ccccc3)NC(=O)[C@H](CC(=O)O)NC(=O)CNC(=O)[C@H](CCCNC(=N)N)NC2=O)C(=O)NCCCC[C@@H]2NC(=O)[C@@H](Cc3ccccc3)NC(=O)[C@H](CC(=O)O)NC(=O)CNC(=O)[C@H](CCCNC(=N)N)NC2=O)NC(=O)[C@@H](Cc2ccccc2)NC(=O)[C@H](CC(=O)O)NC(=O)CNC1=O [indium-111 labelled] | – | athymic nude mice, female, U-87 MG glioma xenograft, tumour and kidney | intravenous, 4 h | reference: tumour over kidney | tumour to tissue ratio | 1.49 ± 0.93
CCCC[C@@H](NC(=O)[C@H](Cc1c[nH]c2ccccc12)NC(=O)[C@@H](N)CSC1CC(=O)N(CCCCCC(=O)NN=C(CO)[C@]2(O)Cc3c(O)c4c(c(O)c3[C@@H](O[C@H]3C[C@H](N)[C@H](O)[C@H](C)O3)C2)C(=O)c2c(OC)cccc2C4=O)C1=O)C(=O)N[C@@H](CCC(=O)O)C(=O)N[C@@H](C)C(=O)N[C@@H](C)C(=O)N[C@@H](Cc1ccc(O)cc1)C(=O)N[C@@H](CCC(N)=O)C(=O)N[C@H](CCCNC(=N)N)C(=O)N[C@@H](Cc1ccccc1)C(=O)N[C@@H](CC(C)C)C(N)=O (stereo partly drawn) | – | acetonitrile/water | one month, -20 °C | – | stability | stable
CCCC[C@H](NC(=O)CCCCCCCNC(=O)c1ccc(NN)nc1)C(=O)N[C@H]1CC(=O)NCCCC[C@@H](C(N)=O)NC(=O)[C@H](Cc2c[nH]c3ccccc23)NC(=O)[C@H](CCCNC(=N)N)NC(=O)[C@@H](Cc2ccccc2)NC(=O)[C@H](Cc2c[nH]cn2)NC1=O [technetium-99m labelled] | – | C57 mouse, B16/F1 melanoma, stomach | intravenous, 24 h | – | uptake | 0.11 ± 0.02 %ID/g
N=C(N)NCCC[C@@H]1NC(=O)[C@H](CCCCNC(=O)CCOCCOCCOCCOCCNC(=O)CC[C@H](NC(=O)CCOCCOCCOCCOCCNC(=O)CC[C@H](NC(=O)CN2CCN(CC(=O)O)CCN(CC(=O)O)CCN(CC(=O)O)CC2)C(=O)NCCOCCOCCOCCOCCC(=O)N[C@@H](CCC(=O)NCCOCCOCCOCCOCCC(=O)NCCCC[C@@H]2NC(=O)[C@@H](Cc3ccccc3)NC(=O)[C@H](CC(=O)O)NC(=O)CNC(=O)[C@H](CCCNC(=N)N)NC2=O)C(=O)NCCOCCOCCOCCOCCC(=O)NCCCC[C@@H]2NC(=O)[C@@H](Cc3ccccc3)NC(=O)[C@H](CC(=O)O)NC(=O)CNC(=O)[C@H](CCCNC(=N)N)NC2=O)C(=O)NCCOCCOCCOCCOCCC(=O)NCCCC[C@@H]2NC(=O)[C@@H](Cc3ccccc3)NC(=O)[C@H](CC(=O)O)NC(=O)CNC(=O)[C@H](CCCNC(=N)N)NC2=O)NC(=O)[C@@H](Cc2ccccc2)NC(=O)[C@H](CC(=O)O)NC(=O)CNC1=O [indium-111 labelled] | – | female athymic nude mice, brain | intravenous, 3 µCi, 72 h, U-87 MG glioma xenograft | – | tissue uptake | 0.09 ± 0.06 %ID/g
CSCC[C@H](NC(=O)[C@H](CC(C)C)NC(=O)[C@H](Cc1c[nH]cn1)NC(=O)CNC(=O)[C@@H](NC(=O)[C@H](C)NC(=O)[C@H](Cc1c[nH]c2ccccc12)NC(=O)[C@H](CCC(N)=O)NC(=O)CCCCCNC(=O)CNC(=O)CNC(=O)CNC(=O)CSC(C)=O)C(C)C)C(N)=O [technetium-99m labelled] | – | healthy Swiss mouse, small intestine, contents removed | intravenous, 18.5 MBq, 30 min | – | tissue uptake | 14.3 ± 2.58 %ID/g
N=C(N)NCCC[C@@H]1NC(=O)[C@H](CCCCNC(=O)CC[C@H](NC(=O)CCOCCOCCOCCOCCNC(=O)CN2CCN(CC(=O)O)CCN(CC(=O)O)CCN(CC(=O)O)CC2)C(=O)NCCCC[C@@H]2NC(=O)[C@@H](Cc3ccccc3)NC(=O)[C@H](CC(=O)O)NC(=O)CNC(=O)[C@H](CCCNC(=N)N)NC2=O)NC(=O)[C@@H](Cc2ccccc2)NC(=O)[C@H](CC(=O)O)NC(=O)CNC1=O [indium-111 labelled] | – | female athymic nude mice, spleen | intravenous, 3 µCi, 0.5 h, U-87 MG glioma xenograft | – | tissue uptake | 2.01 ± 0.43 %ID/g
CC(C)C[C@H](NC(=O)[C@@H]1CCCN1C(=O)[C@H](CCCCN)NC(=O)[C@@H](N)CO)C(=O)N1CCC[C@H]1C(=O)N[C@@H](CCC(=O)O)C(=O)N[C@H](C(=O)N[C@H](C(=O)N[C@@H](CC(=O)O)C(=O)N[C@@H](CCC(=O)O)C(=O)N[C@@H](Cc1ccc(O)cc1)C(=O)N[C@@H](Cc1cn(CCOCCOCCOCCNC(=O)CCc2ccc(O)c(CN(CCN(CC(=O)O)Cc3cc(CCC(=O)NCCCC[C@H](NC(=O)N[C@@H](CCC(=O)O)C(=O)O)C(=O)O)ccc3O)CC(=O)O)c2)nn1)C(=O)O)[C@@H](C)O)C(C)C [gallium-68 labelled] | – | NMRI nu/nu mice, LNCaP tumour, liver | 135.34 nmol/kg, low molar activity | – | standardized uptake value | 0.07 g/g
